# Published values collected from several papers.
# Parts stem from different laboratories: compare values within a part only. Changes are numbered by the printed parent chain.

# Study 1 — technique: RNA Bind-n-Seq; molecule type: RNA; matrix: in vitro; tested at: 365 nM; relative to: no-protein control; direction: higher = stronger binding
# Target: RNA binding protein fox-1 homolog 2, RRM domain, GST-SBP tag (RBFOX2, Homo sapiens, UniProt O43251-10, residues 100-194)
# Setting: natural RNA segment, single round, ends assumed
# Shared flanks, not repeated: GGGAGUUCUACAGUCCGACGAUC … UGGAAUUCUCGGGUGCCAA
Strand,RBNS enrichment (R)
GUAGAGAAGAGGCACGCUUAUGACUAUUGUUCAAAUACAUAAAAACAGUUAUUUUAAAACAGUCCACAAGAGGGGUGUCUAGUUUUCAGAGACACUUCAGAAACUUUGCU,0.554
AAAGCAUUUUUAAAGAUUAAUCUGAAUUAAGCUUUAUCAGUGUACUCUUUAUCUGUGUUACUAGUGCCUGGUAUGUAGUAGGUGCUCAAUAAAUGCAUAUUGAAUAACUA,0.431
ACAGAUAAAUCCUUAACAUUUCUCUCCACCUUAGUACUUUAGACUAAUUGUGUUUGUCCGUCCAUGCCAUGAAUGAGUGGGCUGUAGUUGGGCCUAAAUAAAUGAGCUGU,0.814
ACAUGGGGGGGCCCCUGGGCCUGGGGUGCCCUCCCGAUCUCCUCGUCCCGUAUUUCUCCAUCUCCAGUUCUGGACAGUGCAGGUUGCCAAGAAAAGGGACCUAGCUUAGC,0.605
AGGUCUUCAGGUAUUCAGGAUAGAGAUAAUCUCCUGAAAAACCUGAAUUUCAGAGAUUCUUAGACUGGCUGCCAAAGGAUGAAGCUAGUGAAGGAGAAAAAGCUUAAAUU,1.15
UUUGAUUAUAUUCAGAUUUCCAAACAAGUGCUGGCCUUCAGAUCAUAAGUAUAAGAAAUAUGCAUCAUAUCUGCCUAUUGCAGGCUUCUGAAACUUGCACUGCCCAUCCA,0.438
CAGUUGUCAUGUCUUUUGGUUGUGAGCCUAUGCACCUUACCUUUAAUGGUUGAACCAUCUUUUCAGCCCAAACAGUUUAUUUCUAAAAAGUAGAUUUAAUGCUAGGGGCC,0.826
CAAGUGCAUUGAUAUGUGAAGUAGAAUGAAUUGCAGAGGAAAGUUUUAUGAAUAUGGUGAUGAGUUAGUAAAAGUGGCCAUUAUUGGGCUUAUUCUCUGCUCUAUAGUUG,4.65
CCUUGUCAUUCCUAUGUACAGUAGCUGGAAGUCGCAGUGAGCAAGCAUAACCCACGUUUGUAUAAAUUAUUGAAAUCCAUUUUCACCUAAGAAUGGACUUAAGAAGUACU,0.392
UCCAUAGGAAUAAGGCAUGCCCAGCUAACAGAAAUUUAAGUCCCUCUUCCCCACCUCUCUCAUCUAGACCAAAAAGAAGACUACAAUUUAGAUCCUUGGAGACUUUUCCU,1.16
GUGACAUGUAGAAAAAUUUACAGUAAACUGAAAUGACCAUUUGUCAAUGCAUUGGUGCAUAGGAGUUACUAGGGCUACUUCUGGAAGCCAAAAUAGAAUAGCAUCUCCAU,0.74
GCCCCUGUCUUCCUUCUCAUGACCAUUUCCCCCUUUCUGUCUGGCUUGCAUUAUUGAUUUCCAGGACCAAGUCCUGGCUUCCUCCUGCCUUCCUGAGAUGAUGUUCUGCU,1.06

# Study 2 — technique: RNA Bind-n-Seq; molecule type: RNA; matrix: in vitro; tested at: 200 nM; setting: whole 134-nt RNA, ends assumed; together with: 150 mM KCl; relative to: input library; direction: higher = stronger binding
# Target: Fragile X messenger ribonucleoprotein 1, C-terminal low-complexity region (Fmr1, Mus musculus, UniProt P35922)
# Shared flanks, not repeated: GGGAGUUCUACAGUCCGACGAUC … UGGAAUUCUCGGGUGUCAAGG
Strand,log2 enrichment
CCUGUGCUACACAUCGUAUGUACCGAAUCGGGGAAAAAAAGGGGAGGGGUUUUUUUGGGGAAAGUAUUAUGUUACGCCGUUCGGAUCUGC,0.173
GUCCUGUGCUACACAUCGUAUGUACCGAAUCGGGAAAAGGGGAAAAGGGGAAAAGGGGAAAGUAUUAUGUUACGCCGUUCGGAUCUGCAC,0.244
CACAGACAACACGCACCCACACAGACACAGAGGGAAGGGGUUGGGAUGGGGACAGGGUGCACAGCAGUGCGGGGUAGGACCCCAGCCCCU,1.31
CACAGACAACACGCACCCACACAGACACAGAGGGAAGUGGUUGGGAUGGGGACAGGGUGCACAGCAGGGCGGGGUAGGACCCCAGCCCCU,1.36
CUCAAGUCCUGUGCUACACAUCGUAUGUACCGAAUCGGAAGGGGAAGGGAAGGAAAGUAUUAUGUUACGCCGUUCGGAUCUGCACUUCCA,0.0633
CUGUGCUACACAUCGUAUGUACCGAAUCGGGCCCCCCCGGGGCCCCCCCGGGGCCCCCCCGGAAAGUAUUAUGUUACGCCGUUCGGAUCU,-1.58
UAACUUUAGAGGAGGAUCUGAUGGAUAUGGCAGUGGACGUGGAUUUGGGGAUGCCUAUAAUGGGUAUGGAGGAGGACCUGGAGGUGGCAA,0.353
CCUGUGCUACACAUCGUAUGUACCGAAUCGGGUUUUUUGGGUUUUUUGGGGUUUUUUGGGGAAAGUAUUAUGUUACGCCGUUCGGAUCUG,-0.581
UCCUGUGCUACACAUCGUAUGUACCGAAUCGGGUUUUUGGGGUUUUUGGGGUUUUUGGGGAAAGUAUUAUGUUACGCCGUUCGGAUCUGC,0.606
ACGCUCCAUGAAAGCUAGGAGGGAGUGAAAUAUCAGUGAUCAUCGCAAGGAAGGAGGCAGACAAGAGUAAGGCACACCUGACUCUUAGGA,-0.481
GCAGGAAGUAAAAACAAAUGGAAAUGCUUCGGAUAGUGGCAGGGGUGGGGGGUGCUAAGGAAAGGGUGGGAUGGGAGUGGGUAAAGAGUU,0.295
CAAGUCCUGUGCUACACAUCGUAUGUACCGAAUCGGAAAAGGAAAAGGAAAAGGGAAAGUAUUAUGUUACGCCGUUCGGAUCUGCACUUC,-0.694
UAGUGAUGAAAAAUUUCUCCCUUCUAGGUUUCCCUUGGGGGCUUUGAAAUAACACCACCAGUGGUCUUAAGGUUGAAGUGUGGUUCAGGG,-0.182
UGGGAGGUGGAUUUUGUUUAUUUUUUUAGCUCAUUUCCAGGGGUGGGAAUUUUUUUUUAAUAUGUGUCGUGAAUAAAGUUGUUUUUGAAA,0.351

# Study 3 — technique: DNA-protein interaction ELISA; molecule type: double-stranded DNA, one strand shown; matrix: in vitro, bacterial lysate; tested at: not given; setting: whole dsDNA probe, crude lysate protein; relative to: highest signal in screen; direction: higher = stronger binding
# Target: Probable WRKY transcription factor 11, DNA-binding domain (WRKY11, Arabidopsis thaliana, UniProt Q9SV15, residues 228-325)
# Construct (chain): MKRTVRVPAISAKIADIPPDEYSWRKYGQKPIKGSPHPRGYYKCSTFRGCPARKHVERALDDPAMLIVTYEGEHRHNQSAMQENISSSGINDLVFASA
Strand,relative absorbance
AAAAAATTAGACGCTACACTTACGGTAAAA,17 % of maximum
AAAAAAATCCCACTTCATTCTAAAAA,15.8 % of maximum
AAAAAATTAGCTTATCCTTGCTTGTGAAAA,16.1 % of maximum
AAAAAAGTCTAAGGACTTATAGCTGTAAAA,59.9 % of maximum
AAAAAATTCAGAGCTTCGAGGTTCCGAAAA,17.6 % of maximum
AAAAAAAAAAAAAAAAAAAAAAAAAAAAAA,14 % of maximum
AAAAAATGGTACTCAGAGTTATAGACAAAA,16.1 % of maximum
AAAAAATAAACGTGTTCATACTTAGTAAAA,16.1 % of maximum
AAAAAACTAACCGTCGCAGGCGTGTGAAAA,17.9 % of maximum
AAAAAACCGACCTGCACGTCGCTGCTAAAA,12.4 % of maximum
AAAAAATTCCCAGCGTATCCGACCCGAAAA,13.8 % of maximum
AAAAAATGCCATTGTACCTGTGTTCGAAAA,10.7 % of maximum
AAAAAAATCAGCCTGACTCTGGGCGTAAAA,17.6 % of maximum
AAAAAAGTTTCCTACTTGTGTCTGTGAAAA,13.5 % of maximum
AAAAAACGCAACTCCGGATGTGGGGTAAAA,14.4 % of maximum
AAAAAATGGTCGTCGTACTCGTGGTCAAAA,76.7 % of maximum
AAAAAATTTGCTCTTTTGGTTTTCACAAAA,17 % of maximum
AAAAAAAGTATCAAAGCCTAGGGCTGAAAA,13.3 % of maximum
AAAAAAGGTTGGTACGTCGAGTTCTTAAAA,13 % of maximum
AAAAAAGTACGGATGCCCGCGCGTATAAAA,17 % of maximum
AAAAAAAACTCCCATACTACAACCGAAAAA,13.3 % of maximum
AAAAAACCGCTTACATTGCGTTGTCGAAAA,16.4 % of maximum
AAAAAATCGGGGATCCGGGCGGTTGCAAAA,16.7 % of maximum
AAAAAAGCTCGTCTCCGCCTCCTGCTAAAA,17.3 % of maximum

# Study 4 — target: CCNB2, cyclin fold, Cln2 fusion (human); technique: yeast growth competition, sequencing; matrix: yeast; setting: weak parent motif; relative to: not given; direction: higher = stronger binding
# Parent: PKN2 docking peptide (human); VSAVQKLDFSDTM; partner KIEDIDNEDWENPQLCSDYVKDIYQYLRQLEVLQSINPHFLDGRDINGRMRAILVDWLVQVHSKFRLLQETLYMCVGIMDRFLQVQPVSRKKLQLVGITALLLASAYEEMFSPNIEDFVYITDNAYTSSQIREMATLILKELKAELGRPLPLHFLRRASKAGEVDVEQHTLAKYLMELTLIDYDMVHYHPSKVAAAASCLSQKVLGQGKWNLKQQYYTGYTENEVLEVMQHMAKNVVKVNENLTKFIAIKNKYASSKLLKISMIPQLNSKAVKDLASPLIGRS
Variant,normalised enrichment score
M13Y,0.527
D11W,-0.0391
K6F,-0.391
D11Y,-0.243
K6P,-0.663
F9G,-0.146
D8K,0.0396
D8T,-0.246
S2E,-0.353
S2K,-0.275
K6M,-0.252
S2I,-0.0219
F9K,0.0631
T12D,0.247
S10R,-0.0222
M13C,-0.0462
D11N,0.24

# Study 5 — technique: protein binding microarray; molecule type: double-stranded DNA, one strand shown; matrix: in vitro; tested at: not given; relative to: not given; direction: higher = stronger binding
# Target: Histone acetyltransferase KAT6A, both winged helices, GST fusion (KAT6A, Homo sapiens, UniProt Q92794, residues 1-181)
# Setting: 8-mer, flanks averaged, mean of 2 arrays, mostly near background
# Construct (chain): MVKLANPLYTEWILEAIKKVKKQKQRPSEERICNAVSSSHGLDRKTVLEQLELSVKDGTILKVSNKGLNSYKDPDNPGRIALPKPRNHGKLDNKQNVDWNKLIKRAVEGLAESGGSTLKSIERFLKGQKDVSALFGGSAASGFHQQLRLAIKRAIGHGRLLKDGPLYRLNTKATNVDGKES
Strand,E-score
GCGGACGA,0.245
TCACTGAA,-0.108
CCAAGCAG,-0.0979
ATCCGTGG,0.165
CACAGTGC,0.0144
CCTCTAAC,-0.148
CATAAGAG,-0.186
CACACATG,-0.124
ACGCGCGC,0.392
CGAGATCC,0.0756
CTCTTCTC,-0.0706
AGCGGTTG,0.138
CACCGCCG,0.326
CTTAACTC,-0.189
CTTTATTC,-0.188
CGACGGGC,0.315
CGTGGGGC,-0.0941
AAATACTT,-0.049
AGGCAGAA,-0.0717
ACGGAAAG,0.217
TGAGAGAA,-0.193
CTAAGAGA,-0.218
AATATCCA,-0.00454
AATTTAGT,-0.112
